Measurements gathered from unrelated publications.
Each numbered part is a random draw from the data of one study; scales do not carry over between parts. Changes are numbered by the printed parent chain.

Block 1
Target: Histone acetyltransferase KAT6A, winged helix 2, GST fusion (KAT6A, Homo sapiens, UniProt Q92794, residues 85-181)
Method: protein binding microarray
Form: double-stranded DNA, one strand shown
Matrix: in vitro
Tested at: not given
Notes: 8-mer, flanks averaged, mean of 2 arrays, mostly near background
Baseline: not given
Reading: higher = stronger binding
Target sequence (chain): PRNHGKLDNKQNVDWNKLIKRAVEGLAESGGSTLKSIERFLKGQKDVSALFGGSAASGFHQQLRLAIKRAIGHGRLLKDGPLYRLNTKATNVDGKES
`TACCTAAA` has an E-score of -0.159.
The E-score of `AAAATCAA` is reported as 0.0415.
`AGGTGTAT` has an E-score of -0.139.
`CCACCGCA` has an E-score of 0.108.
`GGCCTTAA` has an E-score of -0.0755.
`ACTGAGTG` gave an E-score of -0.0523.
For `AATCCGTG`, the E-score was -0.0459.
For `TCGCAACA`, the E-score was 0.00901.
`AGCATCGA` has an E-score of 0.0761.
`CAGTGCTA` has an E-score of 0.00361.
For `AGGCGCCG`, the E-score was 0.21.
`CGATCGCA` has an E-score of 0.171.
`ACTCACCA` has an E-score of -0.134.
For `AAAGGGGC`, the E-score was 0.0692.
`CCCTAATA` has an E-score of 0.000125.
With `GACTACAC` the E-score was -0.178.
For `AAGTCTCT`, the E-score was -0.145.
For `CAGATGGC`, the E-score was 0.11.
With `ACTATTCC` the E-score was 0.128.
`CACCTAGC` has an E-score of -0.125.
`ATGCGGTA` has an E-score of -0.189.
With `CAGGCCGC` the E-score was 0.069.

Block 2
Target: RNA binding protein fox-1 homolog 2, RRM domain, GST-SBP tag (RBFOX2, Homo sapiens, UniProt O43251-10, residues 100-194)
Method: RNA Bind-n-Seq
Form: RNA
Matrix: in vitro
Tested at: 365 nM
Notes: natural RNA segment, single round, ends assumed
Baseline: no-protein control
Reading: higher = stronger binding
All sequences stand within: GGGAGUUCUACAGUCCGACGAUC … UGGAAUUCUCGGGUGCCAA
Construct (chain): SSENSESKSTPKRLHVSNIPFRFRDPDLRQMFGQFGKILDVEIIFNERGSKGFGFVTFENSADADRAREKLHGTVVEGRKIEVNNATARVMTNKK
`CCCAAUACCUCUGAGGGUCAGAACUGUGCUUGGGACCUGAGUCAUGAGCCCAGAUCCACAGCAGAGCACAGGCUGCCAAGAUGUCUACUGAAAGUCCCUGAUCAACUCUU`: “RBNS enrichment (R)” 0.182.
For `UUGUCUCUCUCAUUUCAGAAACGGACUUUCUCAUCAUGCUUUCCUAUGGUGGGUAUGAGGGGCCAGCUGAUACCAACCAACUGGCCUGUAUCUAUCUAUCUGGAUUUGAC`, “RBNS enrichment (R)” read 0.222.
Under “RBNS enrichment (R)”, `AACAGGUGGGCUGCCGCCCAUGGAACCGGUGGCUGUUUCUCUACCCUUCACAUCAAGCUGGCCUUGCCCUCUCCCGGGACAGUGCCUGUUAACCUUCAUGUGACAAAACA` is recorded as 0.206.
`UUAAAUAGAAUACGGUUUUAAUUUUUGAUAAGCUGCUGAAUUUUAAAGAGAGUUUUUUGGGGCCACCAAAUAUUUUGGAUCAUGCAGAGAAUAUAUAUUGUACUGUAGUA`: “RBNS enrichment (R)” 0.486.
`CAGGGCAUGCCAGCGUUAACACCACUUUGAGAGACCAAUGGCAAGAAAUGCUGUCUCUUGUGCAUUUUACUAAUUUCCCCAUUCUUAGGGUAGCAGGGUGGGGGUGUAUA` — result for “RBNS enrichment (R)”: 9.92.
`CUUGGACACAGAACACACCAAGAAGGGCUUCAGAAACUAGGGAGGGAAUGCUUGACUCCACGCAUUGAGCCCCUCCUACACAUUGGUACAAGGUCGCUUAGGCCCCUCUA` — result for “RBNS enrichment (R)”: 0.638.
`GUUCACUUUAAUUUAUUUAUGCUGUAAGUUAUUUUUGCUUCCUUCUCCUGGACCCACUUCCAGUCCCGUUUUGCAUUCCCCUUUGGAUUUUGCUUUGGCUAUUUUUUGUU`: “RBNS enrichment (R)” 1.1.
Under “RBNS enrichment (R)”, `AGCUGGAUUAUAUAUUUCCCAGACUUCAAACCCUAGCAGAAGCUAAGGCUUGUGAUUUGACCUGAGACAUUUGUUUCAGGUAAUCGUGUAGAAUGAAGUAUCUUAGUUUA` is recorded as 0.277.
`CUUUUAGAAUAAAGCUGCUACUUUAACAGAGCACCUGGCGUGGGCCAAGUGCCUGAUACUCCCUUACACUGAAUCAUGUUAUGAUUUAUAGAAAUACCUUUCCUGUAGCU`: “RBNS enrichment (R)” 0.391.
Under “RBNS enrichment (R)”, `UUAGUAGAGACAGGGUUUCACCAUGUUGACCACACUGGUCUUGAACUUCUAACCAUGUGAUCUGCCUGCCUCGGCCUCCCAAAGUGCUGGGAUUACAGGCUUGAGCCACC` is recorded as 0.264.
`CCACAUACUUUUGGAAUCCACUGCAAAAUUUUCUACUGGCCAAGUUCAAGUGAGCAAGCCAUGCCCCCAGCUGCAGUCAGAGUUGAGACCGGCUCUGUGGCUCGUAGCUG` — result for “RBNS enrichment (R)”: 0.318.
For `GCCGCCCAUCCUCGGGGACUGUGAGUGUCCUUGUCUUAGUCAAAGCACAUCUCCUACCAAAAUUGCUCCCAAGAUGGAGGGUGAGACCUCAGUGCUAGGUUGACAGGUGG`, “RBNS enrichment (R)” read 0.516.

Block 3
Target: Sal-like protein 4, full length isoform B (SALL4, Homo sapiens, UniProt Q9UJQ4-2, residues 1-616)
Method: universal PBM
Form: double-stranded DNA, one strand shown
Matrix: in vitro
Tested at: not given
Notes: 8-mer, flanks averaged, mean of replicates
Reading: higher = stronger binding
Residues (chain): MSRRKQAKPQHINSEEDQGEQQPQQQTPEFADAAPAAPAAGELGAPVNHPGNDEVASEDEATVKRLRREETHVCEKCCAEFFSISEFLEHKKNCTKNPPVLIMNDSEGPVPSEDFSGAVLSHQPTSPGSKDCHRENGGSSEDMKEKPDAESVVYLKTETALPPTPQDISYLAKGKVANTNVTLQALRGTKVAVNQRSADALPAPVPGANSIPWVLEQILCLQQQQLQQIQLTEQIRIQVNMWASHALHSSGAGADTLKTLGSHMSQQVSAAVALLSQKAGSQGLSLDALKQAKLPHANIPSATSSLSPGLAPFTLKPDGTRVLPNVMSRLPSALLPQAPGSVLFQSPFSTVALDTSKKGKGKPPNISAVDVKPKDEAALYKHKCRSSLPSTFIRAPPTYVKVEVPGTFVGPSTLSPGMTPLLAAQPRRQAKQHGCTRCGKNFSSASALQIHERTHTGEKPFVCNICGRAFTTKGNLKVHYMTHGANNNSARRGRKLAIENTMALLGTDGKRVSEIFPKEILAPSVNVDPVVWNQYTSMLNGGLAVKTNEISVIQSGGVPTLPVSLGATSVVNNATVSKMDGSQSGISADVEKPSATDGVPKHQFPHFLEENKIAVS
For `AGGTAAAA`, the E-score was 0.147.
For `CTTCCGTC`, the E-score was -0.187.
The E-score of `AGAAACAT` is reported as 0.302.
For `GCCCCATA`, the E-score was -0.124.
`CGTTCGCA` has an E-score of -0.0586.
`ACTTAAAT` gave an E-score of 0.336.
For `GGCGATAA`, the E-score was 0.0828.
The E-score of `AAGGAGCA` is reported as -0.0493.
`CTTTCAAA` gave an E-score of 0.205.
With `CGATACGA` the E-score was -0.0101.
`ATGTTATG` gave an E-score of 0.342.
`CAGGCAAC` has an E-score of -0.185.
`GCGTGTAA` has an E-score of 0.0113.
For `CCCAGAAG`, the E-score was -0.12.
The E-score of `CTTGTCAA` is reported as 0.198.
For `CTGGTCCA`, the E-score was -0.193.
For `CAAGCTCA`, the E-score was -0.33.
The E-score of `CTCATCCC` is reported as -0.297.
For `TTTACAAA`, the E-score was 0.24.
The E-score of `AACCTCGC` is reported as -0.19.

Block 4
Target: JUND, bZIP domain (human)
Method: DHFR protein complementation
Matrix: yeast
Notes: single substitutions, most at no-binding floor
Baseline: wild-type JUN-FOS pair
Reading: higher = stronger binding
Parent: JUN, bZIP domain (human); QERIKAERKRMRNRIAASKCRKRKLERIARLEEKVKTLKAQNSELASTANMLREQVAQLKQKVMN
The binding fitness of `N42K` is reported as -1.21 natural log.
With `L45A` the binding fitness was -1.36 natural log.
With `L38A` the binding fitness was -1.35 natural log.
For `L59S`, the binding fitness was -1.38 natural log.
`A57P` gave a binding fitness of -1.4 natural log.
The binding fitness of `T48G` is reported as -1.36 natural log.
With `L52T` the binding fitness was -1.54 natural log.
`L31I` has a binding fitness of -1.47 natural log.
`V35S` gave a binding fitness of -1.3 natural log.
With `Q55P` the binding fitness was -1.42 natural log.
For `K39W`, the binding fitness was -1.21 natural log.
With `L59P` the binding fitness was -1.51 natural log.
With `T48F` the binding fitness was -1.22 natural log.
`L59R` has a binding fitness of -1.34 natural log.
For `E54P`, the binding fitness was -1.42 natural log.
With `K34P` the binding fitness was -1.47 natural log.
`Q55D` has a binding fitness of -1.39 natural log.
For `A49Q`, the binding fitness was -1.27 natural log.
`V56G` gave a binding fitness of -1.47 natural log.
With `L31P` the binding fitness was -1.44 natural log.
With `Q58P` the binding fitness was -1.52 natural log.
For `L52N`, the binding fitness was -1.49 natural log.

Block 5
Target: RING finger protein unkempt homolog, zinc fingers 1-6, GST-SBP tag (UNK, Homo sapiens, UniProt Q9C0B0, residues 30-357)
Sequence of UniProt Q9C0B0 (30-357, looked up): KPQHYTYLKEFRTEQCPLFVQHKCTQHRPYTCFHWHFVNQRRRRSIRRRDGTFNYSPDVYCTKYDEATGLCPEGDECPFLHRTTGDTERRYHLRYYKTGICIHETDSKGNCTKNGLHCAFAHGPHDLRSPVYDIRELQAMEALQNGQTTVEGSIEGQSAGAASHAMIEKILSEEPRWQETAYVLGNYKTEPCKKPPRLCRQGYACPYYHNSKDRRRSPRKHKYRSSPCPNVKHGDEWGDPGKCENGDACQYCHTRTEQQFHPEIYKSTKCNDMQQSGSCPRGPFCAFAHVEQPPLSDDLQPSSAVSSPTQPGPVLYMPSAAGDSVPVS
Method: RNA Bind-n-Seq
Form: RNA
Matrix: in vitro
Tested at: not given
Notes: RNA with constant flanks, human and mouse sites, ends assumed
Baseline: input RNA pool
Reading: higher = stronger binding
All sequences stand within: GGGAGUUCUACAGUCCGACGAUC … CAACAGAGGAUUGAGCAUCA
`GACGUGGUGGUAGCCGUUGGGUUGGGAAAGUGAGGGAUUUUUGGCCUCGUUUCUCCUGCUUCUUUUCUCCUCCCUUUUACUUUGCCGGUAGAACACAGUUAUGGGUCGCAAGAAGAAGAA` has a bound/input enrichment of 0.441 ratio.
For `CUCAUUGUCUUAGGAUAUAAUGGAUCUCUCCCAAACGGUGAUAGAGGAAGGAGGAAAAGUAGGUUUGCUUUGUUUAAAAGACCUAAGGCAAAUGGGGUGAAGCCUAGCACCGUGCACAUU`, the bound/input enrichment was 0.361 ratio.
`AUUAUUCCAUCGUUUGUGCUGAUGGACAUCCAGGCUUCUACUGUGGUCACUUACGUCUAUCAACUAAUUGGAGAUGACGUCAAAGUAGAACGAAUUGAGUAUAAAAAGUCGUAAAGCCAG` has a bound/input enrichment of 0.225 ratio.
The bound/input enrichment of `UAUCUUUACAAGUACCUGUGGAGGCUGAUGGUGAAGGACAUGUCCAAGAUAUACAGCUUGUAUAGCACCCUCUUGGCUCAUAAAAAACUACAUAUAAGAAAUUUUGCAGCCGAAAGUUUU` is reported as 0.146 ratio.
`UUAGGUGAAGUGGUUUAAACCAAACGGAACUCUUCAUCUUAAACUACACGUUGAAAAUCAACCCAAUAAUUCUGUAUUAACUGAAUUCUGAACUUUUCAGGAGGUACUGUGAGGAAGAGC` gave a bound/input enrichment of 0.158 ratio.
`ACUGGAGGGGCAGCCUCUGUGAAGCAGCACCAUUCAAGUGCCCACAACAAAGACAUUGCUUUAGGGGUAUUUGAUGUGGUGGUGACAGACCCCUCAUGCCCAGCCUCGGUGCUCAAGUGU` gave a bound/input enrichment of 0.102 ratio.
`GGUUUGGUUAUGACAGAGGCACAUCUUCCUAGCCAGACUUUGGAGCAGGGACUCGAUGUCCUGGAAAUUAUGAGAAACAUUCACAUAUUUGUCUCAAGAUACCUCUAUAAUCUCAAUAAC` gave a bound/input enrichment of 0.105 ratio.
The bound/input enrichment of `CUAAUCGUGUCAGCAGAAGCACUUACUAUGAAAUCAUUUUUUUAAAGAAAUCUGCACAGUAGAUUUUUACAUUGAGCUGAGAUGAAUAUGCCUUGAAAAUAAUAUAAGUGUGAAAUUGUU` is reported as 0.424 ratio.
With `AAUCGGAAGAAGCUUUCAGAGCUGUUGCGGUACUACACAUCUGCUUCUGGGGACGAGAUGGUUUCUCUGAAGGACUACUGUACCAGAAUGAAGGAAAACCAGAAGCACAUCUAUUUUAUC` the bound/input enrichment was 0.118 ratio.
For `GAAAGUUCACAAAUGACAGAACAUAGAAAGGUUUCUGAUCACAUACAGUGGUUUAACAAGCUUUCUUUAAAUGAACCAAAUAGAAUAAAAGUCAAGUCACCUCUUAAGUUUCAGCGUACU`, the bound/input enrichment was 2.15 ratio.
`UCGGUGGGAAGCAAUGGGCUUCUGGACUUUGAUUCAGAAUAUCAGGAGCUCUGGGAUUGGCUGAUUGACAUGGAGUCCCUUGUGAUGGACAGCCACGACCUGAUGAUGUCAGAGGAGCAG` gave a bound/input enrichment of 0.149 ratio.
